{"data": "Results pooled from the literature", "note": "A part holds a random share of what one study measured."}
{"data": "Series 1", "target": "RNA binding protein fox-1 homolog 2, RRM domain, GST-SBP tag (RBFOX2, Homo sapiens, UniProt O43251-10, residues 100-194)", "technique": "RNA Bind-n-Seq", "molecule type": "RNA", "medium": "in vitro", "concentration": "365 nM", "notes": "natural RNA segment, single round, ends assumed", "baseline": "no-protein control", "reading": "higher = stronger binding", "constant ends, left off below": "GGGAGUUCUACAGUCCGACGAUC … UGGAAUUCUCGGGUGCCAA", "Residues (chain)": "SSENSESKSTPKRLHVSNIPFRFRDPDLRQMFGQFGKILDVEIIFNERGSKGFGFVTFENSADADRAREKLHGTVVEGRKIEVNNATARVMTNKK"}
{"Strand": "AUAUUUCCUUCAGGUGUGUGUAAAAUAUGCUGCUUGGAUUGAAAUUCAAAUGGGAUUGAUUAGUCAAGUAACUUGAGACCUCACAGUAAUCUUCACACUUAACCUUAGAC", "RBNS enrichment (R)": 0.388}
{"Strand": "CUAUUCAUUAUAGGGCUUGUAUAUAUAAUCUAAAAUGUCAGCAAGGCAUCGGAGAUGGGUUAACAUCUCAAAACAAAAUAGCCUACAAAUGUUCCUUGUGGGAGACUUUG", "RBNS enrichment (R)": 0.443}
{"Strand": "CACACGCCCCCAGGUCUCCAGGGUAGAAAUCUUUCCAACAGUAGGAACCUAGAGUUAGUCAGGAGUAAAGUCUGUCUAAGGGGAUCGGCAAGCUGCCAGACAACUCUGGC", "RBNS enrichment (R)": 0.425}
{"Strand": "AGUUCCAUCUCGUUAGGAAUUGGUUGAUGAGGUAUGGUACAUCUGCAUUUCUUUAACCAUAGCUGUAAUGUACCAUAUUAAAUUGUAGCCUUUUGCAUGCGGGUAUUAUA", "RBNS enrichment (R)": 4.19}
{"Strand": "GCUGGUAGUCAUGUGGGCUUGCCUUCUCUGCCAAACGACUGGGAAACCAAAAUGAGCCCACCUUGUGUUCUUCCUAGCUCCACCCUCCCCGUGCUGCUGUGUUCUGCUCC", "RBNS enrichment (R)": 0.577}
{"Strand": "UUUGUGUGAGGCUCAGAGCAAAUGAACAAGUGCCAUUCAAGGGUUAGAAACUGCUCAGCCACAGGGUCCCAGUGUCUGAGUCUGGAAGAGUCUUUAGAGAUUUGUUCACU", "RBNS enrichment (R)": 0.283}
{"Strand": "UUGUGCUGUCUACCUCUCACUGGGUCCUGGUGGGGGUCGGGCUCCCUUCUCCUGGGGUGAUUGAUGGCCUGAGCCUGGGGUCCUGGUAGUAGAGACCCAGCUGGCCUGGG", "RBNS enrichment (R)": 0.526}
{"Strand": "GGGGAUAUAUUCACUACUUUGGGAUACCCCCAAACCUGUUCUGACGUCGUGAGUGUCAAAUGUGUCCCACUCCUCCCUAGAAGUUAUGAACACUACACACAGUCAAUAAA", "RBNS enrichment (R)": 0.389}
{"data": "Series 2", "target": "Fragile X messenger ribonucleoprotein 1, C-terminal low-complexity region (Fmr1, Mus musculus, UniProt P35922)", "technique": "RNA Bind-n-Seq", "molecule type": "RNA", "medium": "in vitro", "concentration": "200 nM", "notes": "whole 134-nt RNA, ends assumed", "added": "150 mM KCl", "baseline": "input library", "reading": "higher = stronger binding", "constant ends, left off below": "GGGAGUUCUACAGUCCGACGAUC … UGGAAUUCUCGGGUGUCAAGG"}
{"Strand": "AAGUCCUGUGCUACACAUCGUAUGUACCGAAUCGGGAAAGGGUUUGGGUUUUUGGGAAAGUAUUAUGUUACGCCGUUCGGAUCUGCACUU", "log2 enrichment": 0.455}
{"Strand": "GUCCUGUGCUACACAUCGUAUGUACCGAAUCGGGGCCCCCGGGGCCCCCGGCCCCCGGAAAGUAUUAUGUUACGCCGUUCGGAUCUGCAC", "log2 enrichment": -0.424}
{"Strand": "UGGGAGGUGGAUUUUGUUUAUUGUUUUAGCUCAUUUCCAGGGGUGGGAAUUUUUUUUUAAUAUGUGUCAUGAAUAAAGUUGUUUUUGAAA", "log2 enrichment": 0.174}
{"Strand": "AAGUCCUGUGCUACACAUCGUAUGUACCGAAUCGGGCCCCGGGCCCCGGCCCCGGGAAAGUAUUAUGUUACGCCGUUCGGAUCUGCACUU", "log2 enrichment": -0.932}
{"Strand": "ACCAUGCAGGUGGGCACCUUUGGGAAGUGGGGCAAGGGGGGGAUAGGGAGGGGGGUAACACUUUGGGAACAGGUGGUCCCAGGUCGUUUC", "log2 enrichment": 0.959}
{"Strand": "CUCAAGUCCUGUGCUACACAUCGUAUGUACCGAAUCGGAAGGGGAAGGGAAGGGAAAGUAUUAUGUUACGCCGUUCGGAUCUGCACUUCC", "log2 enrichment": 0.953}
{"data": "Series 3", "target": "Sal-like protein 4, full length isoform A (SALL4, Homo sapiens, UniProt Q9UJQ4, residues 1-1053)", "technique": "universal PBM", "molecule type": "double-stranded DNA, one strand shown", "medium": "in vitro", "concentration": "600 nM", "notes": "8-mer, flanks averaged, mean of replicates", "reading": "higher = stronger binding", "sequence of UniProt Q9UJQ4 (whole entry, looked up)": "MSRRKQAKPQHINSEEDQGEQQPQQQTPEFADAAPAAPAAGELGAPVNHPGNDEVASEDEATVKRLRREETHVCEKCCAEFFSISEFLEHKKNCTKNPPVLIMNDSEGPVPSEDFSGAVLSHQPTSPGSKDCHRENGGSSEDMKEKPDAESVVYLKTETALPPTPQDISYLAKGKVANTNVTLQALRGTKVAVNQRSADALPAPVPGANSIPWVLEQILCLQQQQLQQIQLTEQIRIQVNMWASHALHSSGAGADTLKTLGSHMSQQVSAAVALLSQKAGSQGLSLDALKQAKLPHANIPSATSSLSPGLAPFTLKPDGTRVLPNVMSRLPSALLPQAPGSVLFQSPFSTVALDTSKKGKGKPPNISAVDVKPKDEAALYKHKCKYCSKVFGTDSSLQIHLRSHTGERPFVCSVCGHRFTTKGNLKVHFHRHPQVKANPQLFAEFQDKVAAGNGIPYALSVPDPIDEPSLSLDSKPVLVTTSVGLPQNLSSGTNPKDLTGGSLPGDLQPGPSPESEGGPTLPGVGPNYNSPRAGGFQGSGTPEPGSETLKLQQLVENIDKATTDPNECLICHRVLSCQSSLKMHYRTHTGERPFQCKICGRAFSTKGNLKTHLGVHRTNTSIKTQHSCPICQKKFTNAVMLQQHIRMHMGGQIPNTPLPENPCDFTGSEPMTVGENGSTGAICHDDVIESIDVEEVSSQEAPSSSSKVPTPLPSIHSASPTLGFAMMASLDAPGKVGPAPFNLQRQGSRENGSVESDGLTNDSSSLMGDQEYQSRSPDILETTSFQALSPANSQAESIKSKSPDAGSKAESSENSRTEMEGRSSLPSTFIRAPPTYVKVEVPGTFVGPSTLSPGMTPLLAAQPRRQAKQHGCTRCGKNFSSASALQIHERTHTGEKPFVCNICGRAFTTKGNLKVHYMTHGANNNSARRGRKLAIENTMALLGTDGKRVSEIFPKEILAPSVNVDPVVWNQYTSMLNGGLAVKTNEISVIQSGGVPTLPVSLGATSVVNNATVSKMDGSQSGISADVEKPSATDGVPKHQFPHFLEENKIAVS"}
{"Strand": "CGGGCGTC", "E-score": -0.274}
{"Strand": "GGGTATCA", "E-score": -0.0591}
{"Strand": "AAGTATGT", "E-score": 0.295}
{"Strand": "AACGTCAA", "E-score": 0.225}
{"Strand": "CCAAAAGC", "E-score": -0.152}
{"Strand": "CAGGAGCA", "E-score": -0.121}
{"data": "Single results of other studies"}
{"Molecule": "PhoQ, residues 284 288 289 292 302 303 TTSMTC", "target": "PhoP, residues 12 14 15 18 19 QYFSL (Escherichia coli, UniProt P23836)", "assay": "Sort-seq, item: YFP reporter", "test system": "E. coli", "setting": "PhoQ-PhoP variant library, added: 10 µM Mg2+", "how to read": "baseline: high Mg2+ state, higher = stronger signaling", "quantity": "fold induction", "result": 9.37}
